Measurements collected from several papers.
Protocols differ between the studies behind these lines. Numbers after ± are the reported error.
UniProt O60656, sequence (whole entry, looked up): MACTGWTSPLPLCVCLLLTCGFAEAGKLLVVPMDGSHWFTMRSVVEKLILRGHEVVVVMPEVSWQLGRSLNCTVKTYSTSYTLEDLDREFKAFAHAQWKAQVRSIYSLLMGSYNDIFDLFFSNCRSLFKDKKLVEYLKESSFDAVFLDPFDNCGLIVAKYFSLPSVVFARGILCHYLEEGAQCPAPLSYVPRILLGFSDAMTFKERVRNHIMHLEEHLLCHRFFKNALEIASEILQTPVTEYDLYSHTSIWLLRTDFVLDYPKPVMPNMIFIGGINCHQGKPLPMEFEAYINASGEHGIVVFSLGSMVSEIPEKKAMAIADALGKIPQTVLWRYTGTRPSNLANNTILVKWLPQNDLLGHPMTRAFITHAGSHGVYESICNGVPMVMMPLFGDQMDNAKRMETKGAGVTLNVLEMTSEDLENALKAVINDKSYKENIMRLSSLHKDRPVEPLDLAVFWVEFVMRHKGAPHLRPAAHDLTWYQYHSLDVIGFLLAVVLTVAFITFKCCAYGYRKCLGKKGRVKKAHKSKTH

The inhibition of `CCn1c(C)c(C(C)=O)s/c1=N/N=C(\C)c1ccccn1` is reported as 55.8% (Vero; cell growth or viability, SRB; 100 µg/mL, 48 h).
For `CON=Cc1c(-c2ccccc2)[nH]c2ccccc12`, the inhibition was 48.8 ± 8% (HEK293 NF-κB luciferase reporter; reporter gene, measured: NF-κB; 50 µM, 6 h, together with: TNFα).
With `LRRFSTMPFAFININNVINF` the inhibition was 94.8 ± 0.93% (HUVEC; cell adhesion, real-time cell analysis; peptide; 100 µM, 3 h; reference: vehicle).
`CCn1c(C)c(/N=N/c2ccc(C)cc2)s/c1=N/N=C(\C)c1ccccn1` gave an inhibition of 66.7% (Vero; cell growth or viability, SRB; 100 µg/mL, 48 h).
With `ON=Cc1c(-c2ccccc2)[nH]c2ccccc12` the inhibition was 73.6 ± 2.6% (HEK293 NF-κB luciferase reporter; reporter gene, measured: NF-κB; 50 µM, 6 h, together with: TNFα).
`UGT1A9 (Homo sapiens, UniProt O60656)` gave a Vmax/Km of 186 µL/min/mg (O=c1cc(-c2ccccc2O)oc2ccccc12; steady-state kinetics; pH 7.4, 37 °C).
`LRRFSTMPFMFCNINNVCNF` has an inhibition of 91.02 ± 0.63% (HUVEC; cell migration, real-time cell analysis; peptide; 50 µM, together with: full medium chemoattractant; reference: vehicle).
For `Nc1ccccc1C#Cc1cc(F)cc(F)c1`, the inhibition was 31.5 ± 4.3% (HEK293 NF-κB luciferase reporter; reporter gene, measured: NF-κB; 50 µM, 6 h, together with: TNFα).
With `LRRFSTMPFMFANINNVANF` the inhibition was 99.59 ± 0.13% (HUVEC; cell migration, real-time cell analysis; peptide; 50 µM, together with: full medium chemoattractant; reference: vehicle).
The inhibition of `C/C(=N\N=C1/NC(=O)/C(=C\c2ccc(Cl)cc2)S1)c1ccccn1` is reported as 55.8% (Vero; cell growth or viability, SRB; 100 µg/mL, 48 h).
With `c1ccc(Cc2c(-c3ccccc3)n(Cc3ccccc3)c3ccccc23)cc1` the inhibition was 0% (HEK293 NF-κB luciferase reporter; reporter gene, measured: NF-κB; 50 µM, 6 h, together with: TNFα).
`[O-][n+]1nc(NCCNc2n[n+]([O-])c3ccccc3[n+]2[O-])nc2ccccc21` has an inhibition of 80 to 90% (HUVEC and fibroblast co-culture; tube formation; 20 µM, 11 d).
With `LRRFSTMPFMFTNINNVTNF` the inhibition was 59.1 ± 0.85% (HUVEC; cell proliferation, WST-1; peptide; 100 µM, 72 h; reference: vehicle).
With `CCn1c(-c2ccc(Br)cc2)cs/c1=N/N=C(\C)c1ccccn1` the inhibition was 56.4% (Vero; cell growth or viability, SRB; 100 µg/mL, 48 h).
The inhibition of `Brc1ccc(-c2cc3ccccc3[nH]2)cc1` is reported as 82.3 ± 0.8% (HEK293 NF-κB luciferase reporter; reporter gene, measured: NF-κB; 50 µM, 6 h, together with: TNFα).
`CC(=O)c1s/c(=N/N=C(\C)c2ccccn2)[nH]c1C` gave an inhibition of 63.6% (Vero; cell growth or viability, SRB; 100 µg/mL, 48 h).
`O=Cc1c(-c2ccccc2)[nH]c2ccccc12` has an inhibition of 36.2 ± 11.4% (HEK293 NF-κB luciferase reporter; reporter gene, measured: NF-κB; 50 µM, 6 h, together with: TNFα).
With `LRRFSTMPFMFSNINNVSNF` the inhibition was 98 ± 1.27% (HUVEC; cell adhesion, real-time cell analysis; peptide; 100 µM, 3 h; reference: vehicle).
The inhibition of `Cc1cc(N=Nc2cc(S(=O)(=O)O)c(C)cc2C)c(N)cc1O` is reported as about 100% (U2OS; p53 reporter gene, p21 luciferase; 50 µM, together with: doxorubicin).
For `CCn1c(C)c(/N=N/c2ccc(Cl)cc2)s/c1=N/N=C(\C)c1ccccn1`, the inhibition was 62.4% (Vero; cell growth or viability, SRB; 100 µg/mL, 48 h).
`LRRFSTMPFMFININNVINF` has an inhibition of 73.2 ± 0.78% (HUVEC; cell proliferation, WST-1; peptide; 100 µM, 72 h; reference: vehicle).
`CC(C)(C)OC(=O)n1c(-c2ccccc2)cc2ccccc21` gave an inhibition of 0% (HEK293 NF-κB luciferase reporter; reporter gene, measured: NF-κB; 50 µM, 6 h, together with: TNFα).
`CCn1c(-c2ccccc2)cs/c1=N/N=C(\C)c1ccccn1` gave an inhibition of 53.9% (Vero; cell growth or viability, SRB; 100 µg/mL, 48 h).
`LRRFSTMPFMFGNINNVGNF` gave an inhibition of 25.7 ± 0.78% (HUVEC; cell proliferation, WST-1; peptide; 100 µM, 72 h; reference: vehicle).
The inhibition of `Nc1n[n+]([O-])c2ccccc2[n+]1[O-]` is reported as 50% (HUVEC and fibroblast co-culture; tube formation; 20 µM, 11 d).
`CC(=O)C1S/C(=N/N=C(\C)c2ccccn2)NC1=O` (stereo not shown) has an inhibition of under 45% (Vero; cell proliferation, SRB; 100 µg/mL, 48 h).
For `COc1cc(OC)cc(-c2cc3ccccc3[nH]2)c1`, the inhibition was 56.4 ± 2.3% (HEK293 NF-κB luciferase reporter; reporter gene, measured: NF-κB; 50 µM, 6 h, together with: TNFα).
The inhibition of `heparin` is reported as about 50% (bovine aortic endothelial cells; cell adhesion to collagen NC1 domain; 0.3 µg/mL, 60 min, 37 °C).

Repeated from above:
For `COc1cc(OC)cc(-c2cc3ccccc3[nH]2)c1`, the inhibition was 56.4 ± 2.3% (HEK293 NF-κB luciferase reporter; reporter gene, measured: NF-κB; 50 µM, 6 h, together with: TNFα).
`UGT1A9 (Homo sapiens, UniProt O60656)` gave a Vmax/Km of 186 µL/min/mg (O=c1cc(-c2ccccc2O)oc2ccccc12; steady-state kinetics; pH 7.4, 37 °C).
The inhibition of `heparin` is reported as about 50% (bovine aortic endothelial cells; cell adhesion to collagen NC1 domain; 0.3 µg/mL, 60 min, 37 °C).
With `c1ccc(Cc2c(-c3ccccc3)n(Cc3ccccc3)c3ccccc23)cc1` the inhibition was 0% (HEK293 NF-κB luciferase reporter; reporter gene, measured: NF-κB; 50 µM, 6 h, together with: TNFα).
